# Values quoted from earlier work as cited in several papers.
# Lines come from different studies, so protocols differ. Values joined by “and” are separate records of one study, mostly repeats; a detail may differ. ± gives the spread as reported.
# gag-pol protease: Gag-Pol polyprotein, protease (gag-pol, Human immunodeficiency virus type 1 group M subtype B, UniProt P04585)
# CA2: Carbonic anhydrase 2 (CA2, Homo sapiens, UniProt P00918)
# Tmem97: Sigma intracellular receptor 2 (Tmem97, Rattus norvegicus, UniProt Q5U3Y7)
Structure (SMILES),target or system,test,system,conditions,quantity,result
COc1ccc2nc3cc(Cl)ccc3c(NCCCCNc3nc(N)nc(N)n3)c2c1,RNA repeat r(CUG)2,binding,,,Kd,2100 nM
COc1cc2nc(SC(C)C(=O)NCCc3ccc(S(N)(=O)=O)cc3)n(Cc3ccccc3)c(=O)c2cc1OC (stereo not shown),"carbonic anhydrase XII, human",,,,Ki,5.2 to 8.9 nM
C=CCC(=N)NCCC[C@H](N)C(=O)O,rat nNOS,,,,Ki,100 nM
Cc1ccccc1-c1cc(N2CCNCC2)ncc1N(C)C(=O)C(C)(C)c1cc(C(F)(F)F)cc(C(F)(F)F)c1,,,"healthy volunteers, plasma","oral, dose not given, netupitant-palonosetron, fasted",Cmax,43.7 ng/mL
CC[C@H](C)[C@H](NC(=O)[C@H](CC(=O)O)NC(=O)[C@H](CC(C)C)NC(=O)[C@H](CC(C)C)NC(=O)[C@H](CCCCN)NC(=O)[C@H](CCCNC(=N)N)NC(=O)[C@H](CC(N)=O)NC(=O)[C@H](CO)NC(=O)[C@H](Cc1c[nH]cn1)NC(=O)[C@H](C)NC(=O)[C@H](CCC(N)=O)NC(=O)[C@H](CCC(N)=O)NC(=O)[C@H](C)NC(=O)[C@H](CC(C)C)NC(=O)[C@H](CCC(N)=O)NC(=O)[C@H](CC(=O)O)NC(=O)[C@H](C)NC(=O)[C@H](CCCCN)NC(=O)[C@@H](NC(=O)[C@H](CCSC)NC(=O)[C@H](CCC(=O)O)NC(=O)[C@H](CC(C)C)NC(=O)[C@@H](NC(=O)[C@H](CCC(=O)O)NC(=O)[C@H](CCCNC(=N)N)NC(=O)[C@H](CC(C)C)NC(=O)[C@H](CC(C)C)NC(=O)[C@H](Cc1c[nH]cn1)NC(=O)[C@H](Cc1ccccc1)NC(=O)[C@@H](NC(=O)[C@H](CC(C)C)NC(=O)[C@H](CC(=O)O)NC(=O)[C@H](CC(C)C)NC(=O)[C@H](CO)NC(=O)[C@@H](NC(=O)[C@@H]1CCCN1C(=O)[C@@H]1CCCN1C(=O)[C@H](CCC(=O)O)NC(=O)[C@H](CCC(N)=O)NC(=O)[C@@H](N)CO)[C@@H](C)CC)[C@@H](C)O)C(C)C)[C@@H](C)O)C(=O)N[C@@H](C)C(N)=O,CRF1 receptor,,,,Ki,~2 nM
O=c1[nH]cnc2c(CN[C@@H](CO)CCP(=O)(O)O)c[nH]c12,Plasmodium falciparum HGXPRT,inhibitor,,,Ki,23 ± 2 nM
CNC(=O)C(NC(=O)C(O)(Cc1ccccc1)CN(Cc1ccc(Br)cc1)NC(=O)C(NC(=O)OC)C(C)(C)C)C(C)(C)C (stereo not shown),gag-pol protease,inhibitor,,,Ki,180 nM
COc1ccc(CNCCN2C(=O)c3cccc4cccc(c34)C2=O)cc1,"HEXB (Homo sapiens, UniProt P07686)",,,,Ki,630 nM
C=CC(=O)N1CCC[C@@H](n2nc(-c3ccc4ccccc4c3)c3c(N)ncnc32)C1,"EGFR (Homo sapiens, UniProt P00533)",,,,Ki,15 ± 3.2 nM
COCCOc1cc2ncnc(Nc3cccc(-c4cn(Cc5ccc(S(N)(=O)=O)cc5)nn4)c3)c2cc1OCCOC,Helicobacter pylori alpha-carbonic anhydrase,"inhibitor, stopped-flow CO2 hydration",,,Ki,19.3 nM
CC(=O)O[C@H]1C2=C(C(=O)C(O)=C(C(C)C)C2=O)[C@@]2(C)CCCC(C)(C)[C@@H]2[C@@H]1OC(=O)c1ccc([N+](=O)[O-])cc1,MEL1,,,,GI50,5000 to 10000 nM
N=C(N)SCc1ccccc1CSC(=N)N,Na+/K+-ATPase,,,,Ki,14200 nM
COC(=O)NC(C(=O)NN(Cc1ccc(Br)cc1)CC(O)(Cc1ccccc1)C(=O)Nc1cccc(O)c1C)C(C)(C)C (stereo not shown),gag-pol protease,inhibitor,,,Ki,480 nM
COc1cc2c(cc1OC)[C@@H]1C[C@@H](O)[C@@H](CC(C)C)CN1CC2,5-HT7 receptor,binding,,,Ki,1.9 ng/mL
CSc1nc(N)c2ncn([C@H]3[C@H](O)[C@H](O)[C@]4(COP(=O)(O)OP(=O)(O)O)C[C@H]34)c2n1,P2Y1 receptor,,,,Ki,0.4 nM
CCOC(=O)C(=O)Nc1c(NC[C@H](O)[C@H](O)[C@H](O)CO)[nH]c(=O)[nH]c1=O,Bacillus subtilis lumazine synthase,inhibitor,recombinant β60 capsid,"pH 7.0, Tris·HCl buffer, together with: 2 constant, 1 varied",Ki,607000 ± 177000 nM
C#CCN(C)Cc1cc2ccc(OCCCN3CCCCC3)cc2n1C,histamine H3 receptor (human),binding,,,Ki,10.8 nM
O=C(O)c1cn(CB(O)O)nn1,ADC-7 β-lactamase,inhibitor,,,Ki,6100 nM and 6110 nM
NS(=O)(=O)c1ccc(CCNC(=O)CSc2nc3ccc(I)cc3c(=O)n2Cc2ccccc2)cc1,"carbonic anhydrase IX, human",,,,Ki,16.4 to 24.2 nM
CCC1=C(O)c2c(oc(-c3ccc(OC)c4ccccc34)cc2=O)C(CC)(CC)C1=O,MCF7,"cell growth, SRB",,,IC50,3590 nM
O=C([O-])CN1CCN(CC(=O)[O-])CCN(CC(=O)NCC2CCC(C(=O)NC(Cc3ccc4ccccc4c3)C(=O)NCCCCC(NC(=O)NC(CCC(=O)O)C(=O)O)C(=O)O)CC2)CCN(CC(=O)[O-])CC1.[Ga+3] (stereo not shown),"FOLH1 (Homo sapiens, UniProt Q04609)",,LNCaP,,Ki,6.4 ± 1.02 nM
O=C(/C=C/C=C/c1ccccc1)c1ccco1,MAO-B,,,,Ki,4.1 nM
Nc1c(SC[C@H](O)[C@H](O)[C@H](O)CO)[nH]c(=O)[nH]c1=O,Bacillus subtilis lumazine synthase,inhibitor,recombinant β60 capsid,"pH 7.0, Tris·HCl buffer, together with: 2 constant, 1 varied",Ki,2600 ± 200 nM
CCC1=C(O)c2c(oc(-c3cc4ccccc4s3)cc2=O)C(CC)(CC)C1=O,MCF7,"cell growth, SRB",,,IC50,15200 nM
COCCOc1cc2ncnc(Nc3cccc(-c4cn([C@H]5C[C@H](n6cc(C)c(=O)[nH]c6=O)O[C@@H]5CO)nn4)c3)c2cc1OCCOC,Helicobacter pylori alpha-carbonic anhydrase,"inhibitor, stopped-flow CO2 hydration",,,Ki,19.3 nM
Nc1nc2c(CN[C@H](CO)CCP(=O)(O)O)c[nH]c2c(=O)[nH]1,Trypanosoma cruzi HGPRT,inhibitor,,,Ki,~10 nM and 6 nM
CSCC[C@H](NC=O)C(=O)N[C@@H](CC(C)C)C(=O)N[C@@H](Cc1ccccc1)C(=O)O,human polymorphonuclear leukocytes,binding,,,Kd,10 to 15 nM
O=C(c1ccc(Cl)cc1)N(Cc1ccccc1)C1CCCCC1,RAGE,inhibitor,,together with: HMGB1 ligand,Ki,148 nM
NS(=O)(=O)c1ccc(Nc2nc(CC(=O)c3ccccc3)ns2)cc1,human carbonic anhydrase XII,inhibitor,,,Ki,34.2 nM
NS(=O)(=O)c1ccc(CCn2c(SCC(=O)N/N=C/c3ccccc3)nc3ccccc3c2=O)cc1,CA2,"enzyme activity, inhibitor",,,Ki,52.6 nM
NS(=O)(=O)c1c(F)c(F)c(SCCc2ccccc2)c(F)c1N1CCOCC1,"CA12 (Homo sapiens, UniProt O43570)",fluorescent thermal shift,,"pH 7.0, 37 °C, observed",Kd,100000 nM
O=C1/C(=C/c2cccc(Br)c2)Cc2c(O)cccc21,"Adora2a (Rattus norvegicus, UniProt P30543)",,,,Ki,1000 nM
"O=C(c1ccc(F)cc1)C1CCN(C2Cc3c(cccc3OCCF)CC2O)CC1 (single isomer, unassigned; (-))",sigma-1 receptor,binding,,,Ki,> 10000 nM
CCN(CC)c1ncnc2c1ncn2[C@@H]1O[C@H](COP(=O)(O)OP(=O)(O)C(Br)(Br)P(=O)(O)O)[C@@H](O)[C@H]1O,CD73,,,,Ki,451 nM
O=c1[nH]c(O)nc2c([C@@H]3N[C@H](COP(=O)(O)O)[C@@H](O)[C@H]3O)c[nH]c12,Plasmodium falciparum HGXPRT,inhibitor,,,Ki,> 100000 nM
C[C@@H]1COCCN1c1nc(-c2cnc(N)nc2)nc2c1C[C@@H]1COCCN21,"MTOR (Homo sapiens, UniProt P42345)","binding, TR-FRET displacement",,,Ki,5.1 ± 0.4 nM
COc1cc2c(cc1OC)CN(CCCCn1ccc3c(OCCF)cccc31)CC2,Tmem97,binding,,,Ki,2.4 ± 0.58 nM
C[C@H]1CN(C(=O)c2nc(Nc3cc(C4CC4)[nH]n3)c3cc(Cl)ccc3n2)CCN1,"PAK4 (Homo sapiens, UniProt O96013)",,,,Ki,9 nM
CN1CCN(c2cc(-c3ccccc3CO)c(N(C)C(=O)C(C)(C)c3cc(C(F)(F)F)cc(C(F)(F)F)c3)cn2)CC1,,,"healthy volunteers, plasma","oral, 450 mg, single dose, given alone",AUC(0-inf),8090 ng·h/mL
Cc1cc(N)nc(C[C@@H]2CNC[C@@H]2OCCNCCc2cccc(F)c2)c1,"Nitric oxide synthase 1 (Homo sapiens, UniProt P29475)",,,,Ki,70 nM
COCCOCCOCCOCCC(=O)NCc1cc(CNC(=O)CCOCCOCCOCCOC)cc(-c2cc3cc4nc(c(OC)c5[nH]c(cc6nc(cc2[nH]3)CC6(C)C)cc5-c2cc(CNC(=O)CCOCCOCCOCCOC)cc(CNC(=O)CCOCCOCCOCCOC)c2)CC4(C)C)c1,,,PBS,room temperature,integrated Qy/B absorption ratio,0.49
Nc1nc2c([C@@H]3N[C@H](COP(=O)(O)O)[C@@H](O)[C@H]3O)c[nH]c2c(=O)[nH]1,Plasmodium falciparum HGXPRT,inhibitor,,,Ki,14 ± 2 nM
COc1cc2c(cc1OC)CN(CCCCn1ccc3cc(OCCF)ccc31)C2,Tmem97,binding,,,Ki,3.27 ± 0.19 nM
C/C(=N\NC(=O)CSc1nc2ccccc2c(=O)n1CCc1ccc(S(N)(=O)=O)cc1)c1ccccc1,CA2,"enzyme activity, inhibitor",,,Ki,67.5 nM
O=c1[nH]c(NC[C@H](O)[C@H](O)[C@H](O)CO)c([N+](=O)[O-])c(=O)[nH]1,"ribH (Mycobacterium tuberculosis, UniProt P9WHE9)",inhibitor,,pH 7.0,Ki,13000 ± 1000 nM
O=c1[nH]cnc2c(CNC(CO)COP(=O)(O)O)c[nH]c12 (racemic),Trypanosoma cruzi HGPRT,inhibitor,,,Ki,1100 ± 200 nM
COCCOc1cc2ncnc(Nc3cccc(-c4cn(Cc5ccc(C(=O)Nc6cccc(S(N)(=O)=O)c6)cc5)nn4)c3)c2cc1OCCOC,Helicobacter pylori alpha-carbonic anhydrase,"inhibitor, stopped-flow CO2 hydration",,,Ki,43.6 nM
CC(C)C(=O)Nc1c(NC[C@H](O)[C@H](O)[C@H](O)CO)[nH]c(=O)[nH]c1=O,"6,7-dimethyl-8-ribityllumazine synthase (rib4, Schizosaccharomyces pombe, UniProt Q9UUB1)",inhibitor,,pH 7.0,Ki,7900 ± 800 nM
CC(=O)O[C@H]1C2=C(C(=O)C(OC(=O)c3ccc(Cl)cc3)=C(C(C)C)C2=O)[C@@]2(C)CCCC(C)(C)[C@@H]2[C@@H]1O,MOLT-3,,,,GI50,≤ 5000 nM

# For quick reference, copied from above:
Structure (SMILES),target or system,test,system,conditions,quantity,result
Nc1c(SC[C@H](O)[C@H](O)[C@H](O)CO)[nH]c(=O)[nH]c1=O,Bacillus subtilis lumazine synthase,inhibitor,recombinant β60 capsid,"pH 7.0, Tris·HCl buffer, together with: 2 constant, 1 varied",Ki,2600 ± 200 nM
CCC1=C(O)c2c(oc(-c3cc4ccccc4s3)cc2=O)C(CC)(CC)C1=O,MCF7,"cell growth, SRB",,,IC50,15200 nM
COCCOc1cc2ncnc(Nc3cccc(-c4cn([C@H]5C[C@H](n6cc(C)c(=O)[nH]c6=O)O[C@@H]5CO)nn4)c3)c2cc1OCCOC,Helicobacter pylori alpha-carbonic anhydrase,"inhibitor, stopped-flow CO2 hydration",,,Ki,19.3 nM
